Assay results of several laboratories.
Lines come from different studies, so protocols differ. “And” joins repeats or separate records; there may be more than shown. Numbers after ± are the reported error.

SMILES	cell line	test	setting	scale	endpoint	value
C=CC(=O)N1CCCN(C(=O)c2cc(Sc3cnc(NC(=O)C4CC4)s3)c(C)cc2OC)C[C@H]1C	human CD4 T cells	flow cytometry	concentration not given, together with: anti-CD3/CD28 crosslinking		ERK phosphorylation	inhibited
CCC/N=C1\S/C(=C\c2ccc(OC[C@H](O)CO)c(Cl)c2)C(=O)N1c1ccccc1C	human primary astrocytes	single-cell RNA-seq, refers to: TUBA1B mRNA	concentration not given, 48 h, together with: cytokine stimulation	relative to: cytokine alone	log2 fold change	0.393
COc1cc(/C=C/C(=O)N2CCC=CC2=O)cc(OC)c1OC	MDA-MB-468	quantitative RT-PCR, refers to: NDUFS4	30 µM, 8 h	relative to: untreated cells	mRNA level	76.1 ± 6.5%
O=C(/C=C/c1ccc(CN(CCO)CCc2c[nH]c3ccccc23)cc1)NO	HBL-1		0.5 µM, 120 h		viability	0.446%
CCN(CC)C(=S)SSC(=S)N(CC)CC	BT-12	cell viability, MTT	10 µM, 72 h		inhibition	84.7%
CCn1cc(-c2cc(Cn3ccoc3=N)cc3c2CCN([C@@H](C)c2cc(OC)ccn2)C3=O)c(C(F)(F)F)n1	OCI-Ly7	cell growth, inhibitor	120 h		EC50	1.4 µM
O=C(/C=C/C=C/C=C/C1CCCCC1)NC1=C[C@@](O)(/C=C/C=C/C=C/C(=O)NC2=C(O)CCC2=O)[C@@H]2O[C@@H]2C1=O	ialm	cell growth, inhibitor, CellTiter-Glo luminescence	78 h	relative to: day 0 cell count	GI50	13.9 µM
CC/C(=N\NC(=O)NCc1cccc(O)c1)c1ccc(O)c(C)c1O	SK-OV-3	Western blot, refers to: YAP	10 µM, 1 h, 3D gellan gum culture, unit not given	relative to: β-actin	protein level	1.06 ± 0.17
Cc1nc(-c2ccccc2)c(-c2ccncc2)o1	HeLa expressing Ub(G76V)-GFP	Ub(G76V)-GFP degradation, cycloheximide chase	12 µM		inhibition	4%
Cn1cc(/C=C/C(=O)c2cccc(F)c2)cc1/C=C/C(=O)NO	HBL-1		0.5 µM, 120 h		viability	123%
Cn1cc(-c2ccc(-c3cncc(Cl)c3N3CCC4(CCNC4=O)CC3)cc2)cn1	COLO 205	gene expression, microarray, refers to: PLAC8 mRNA	concentration not given, 6 h	relative to: untreated cells	log2 fold change	-2.3
Cc1cc(Nc2nn(-c3ccccc3)c(=O)c3ccccc23)n[nH]1	HBL-1		0.1 µM, 120 h		viability	128%
NC(=O)NOCCCCCCCCCCCCCC[P+](c1ccccc1)(c1ccccc1)c1ccccc1.O=C([O-])C(F)(F)F	mouse CD4 T cells, reporter	IFNγ-YFP expression, flow cytometry	144 h		concentration at maximal effect	1.5 µM
O=c1cc(N2CCOCC2)oc2c1ccc1ccccc12	HeLa expressing Ub(G76V)-GFP	Ub(G76V)-GFP degradation, inhibitor, cycloheximide chase	12 µM		inhibition	21%
Nc1nc(OCc2cc(Br)cs2)c2[nH]cnc2n1	HBL-1		0.5 µM, 120 h		viability	113%
CCC(=O)N1CCC(COCC(=O)N2CCN(c3nc(-c4cnc(N)nc4C(F)F)nc(N4CCOC[C@@H]4C)n3)CC2)CC1	A2058	western blot, refers to: phospho-PKB/Akt Ser473	2 h		IC50	0.287 µM
CCCCCCCCOC(=O)C(=O)CCC(=O)O	HBL-1		1 µM, 120 h		viability	103%
O=C(C[C@@H](C(F)F)n1ccc(F)n1)N1CCC(O)(Cn2cnc3c(cnn3-c3ccc(F)cc3)c2=O)CC1	CHP-212 resistant cells (pooled)	PI flow cytometry	0.3 µM, 24 h		cells in G2/M phase	10.2% and 13.8% and 15.5%
O=C(Nc1ccc2c(O)cc(S(=O)(=O)O)cc2c1)Nc1ccc2c(O)cc(S(=O)(=O)O)cc2c1	HBL-1		1 µM, 120 h		viability	98.2%
CC[S+]([O-])c1nc(-c2ccccc2)cc(C(F)(F)F)n1 (centres unmarked)	HeLa Kyoto	RelA nuclear import, high content imaging	1.58 µM, 3 h, together with: 1 µM PMA, 60 min		cells with nuclear RelA	90.7% and 70.7%
Nc1ncnc2c1ncn2[C@@H]1O[C@H](C[C@@H](N)CC[C@H](N)C(=O)O)[C@@H](O)[C@H]1O	HBL-1		0.5 µM, 120 h		viability	120%
C#CCNS(=O)(=O)c1ccc(CCN(Cc2cc(Cl)ccc2OCCC)C(=O)c2ccc(F)cc2)cc1	J774A.1	ELISA	concentration not given, 16 h, together with: LPS 1 µg/mL		IL-6 level	no inhibition
COc1ccc(-c2ccc3ncc4c(c3c2)n(-c2ccc(N3CCNCC3)c(C(F)(F)F)c2)c(=O)n4C)cn1.O=C(O)/C=C\C(=O)O	BT-12	cell viability, MTT	10 µM, 72 h		inhibition	94.3%

Repeated from above:
SMILES	cell line	test	setting	scale	endpoint	value
CC/C(=N\NC(=O)NCc1cccc(O)c1)c1ccc(O)c(C)c1O	SK-OV-3	Western blot, refers to: YAP	10 µM, 1 h, 3D gellan gum culture, unit not given	relative to: β-actin	protein level	1.06 ± 0.17
O=C(C[C@@H](C(F)F)n1ccc(F)n1)N1CCC(O)(Cn2cnc3c(cnn3-c3ccc(F)cc3)c2=O)CC1	CHP-212 resistant cells (pooled)	PI flow cytometry	0.3 µM, 24 h		cells in G2/M phase	10.2% and 13.8% and 15.5%
Cc1cc(Nc2nn(-c3ccccc3)c(=O)c3ccccc23)n[nH]1	HBL-1		0.1 µM, 120 h		viability	128%
